{"data": "Assay results gathered from unrelated publications", "note": "Protocols differ between the studies behind these lines. ± marks the error that the study gave."}
{"SMILES": "NCCCC[C@H](NC(=O)CNC(=O)CNC(=O)[C@H](CCCCN)NC(=O)CNC(=O)CNC(=O)CNC(=O)[C@H](CCCCN)NC(=O)CNC(=O)CNC(=O)[C@H](CCCCN)NC(=O)CNC(=O)CNC(=O)CNC(=O)[C@H](CCCCN)NC(=O)CNC(=O)CNC(=O)[C@H](CCCCN)NC(=O)CNC(=O)CNC(=O)CNC(=O)[C@H](CCCCN)NC(=O)CNC(=O)CNC(=O)[C@H](CCCCN)NC(=O)[C@H](CO)NC(=O)[C@H](Cc1ccc(O)cc1)NC(=O)CNC(=O)CNC(=O)CN)C(=O)NCC(=O)O", "assay": "binding", "system": "AA amyloid mouse liver homogenate", "conditions": "1 h, room temperature", "measurement": "bound fraction", "value": "21%"}
{"SMILES": "CCCCCCCCCCCCCCCC(=O)N[C@@H](CCC(=O)NCCOCCOCCC(=O)NCCOCCOCCC(=O)NCCCC[C@H](NC(=O)[C@H](CC(=O)O)NC(=O)[C@H](CC(C)C)NC(=O)[C@H](Cc1ccc(O)cc1)NC(=O)[C@H](CCCCN)NC(=O)[C@H](CO)NC(=O)[C@H](Cc1ccc(O)cc1)NC(=O)[C@H](CC(=O)O)NC(=O)[C@H](CO)NC(=O)[C@@H](NC(=O)[C@H](Cc1ccccc1)NC(=O)[C@@H](NC(=O)CNC(=O)[C@H](CCC(N)=O)NC(=O)[C@@H](CO)NC(=O)[C@@H](N)Cc1c[nH]cn1)[C@@H](C)O)[C@@H](C)O)C(=O)N[C@@H](CCCNC(=N)N)C(=O)N[C@@H](CCCNC(=N)N)C(=O)N[C@@H](C)C(=O)N[C@@H](CCC(N)=O)C(=O)N[C@@H](CC(=O)O)C(=O)N[C@@H](Cc1ccccc1)C(=O)N[C@H](C(=O)N[C@@H](CCC(N)=O)C(=O)N[C@@H](Cc1c[nH]c2ccccc12)C(=O)N[C@@H](CC(C)C)C(=O)N[C@@H](CC(C)C)C(=O)N[C@@H](CC(N)=O)C(=O)N[C@H](C(=O)NCC(=O)NCC(=O)N1CCC[C@H]1C(=O)N[C@@H](CO)C(=O)N[C@@H](CO)C(=O)NCC(=O)N[C@@H](C)C(=O)N1CCC[C@H]1C(=O)N1CCC[C@H]1C(=O)N1CCC[C@H]1C(=O)N[C@@H](CO)C(N)=O)[C@@H](C)O)C(C)C)C(=O)O", "system": "Sprague-Dawley rat ANIT model", "conditions": "dose not given", "measurement": "serum bilirubin and ALP", "value": "decreased"}
{"SMILES": "Cc1cc(Nc2nc(C[C@@]3(C(=O)O)CCN(Cc4cccc(Cl)c4F)[C@H](C)C3)cc(C)c2F)[nH]n1", "system": "mouse, IMR-32 neuroblastoma xenograft", "conditions": "oral, 2.5 mg/kg once daily", "measurement": "tumour growth inhibition", "value": "73%"}
{"SMILES": "CC[C@H](C)[C@@H]1NC(=O)[C@@H](NC(=O)CNC(=O)c2ccc(F)cc2)CSSC[C@@H]2NC(=O)[C@H](C)NC(=O)CNC(=O)[C@@H]3CCCN3C(=O)[C@@H]3CSSC[C@@H](C(=O)NCC(=O)O)NC(=O)[C@H](Cc4ccc(O)cc4)NC(=O)CNC(=O)[C@H](CC(N)=O)NC(=O)CNC(=O)[C@H](CCCNC(=N)N)NC(=O)[C@H](CSSC[C@H](NC(=O)[C@H](CCCNC(=N)N)NC(=O)[C@H](Cc4ccccc4)NC(=O)[C@H](CC(C)C)NC(=O)[C@H](CC(C)C)NC(=O)[C@H]([C@@H](C)O)NC(=O)CNC(=O)[C@H](CC(C)C)NC(=O)[C@H](CC(=O)O)NC(=O)[C@H]([C@@H](C)O)NC(=O)[C@H](CCCNC(=N)N)NC(=O)[C@H](CCSC)NC(=O)[C@H](CC(N)=O)NC(=O)[C@H](CC(C)C)NC1=O)C(=O)N[C@@H](CCCNC(=N)N)C(=O)N[C@@H](CCCNC(=N)N)C(=O)N[C@@H](CC(=O)O)C(=O)N[C@@H](CO)C(=O)N[C@@H](CC(=O)O)C(=O)N3)NC(=O)[C@H]([C@@H](C)CC)NC2=O [fluorine-18 labelled]", "assay": "γ-counting", "system": "mouse, BxPC-3 xenograft (integrin αvβ6-positive), excised tumour", "conditions": "2 h post injection", "measurement": "tumour uptake", "value": "1.4 ± 0.3 %ID/g"}
{"SMILES": "CC(C)[C@H](N)C(=O)N[C@@H](Cc1ccc(O)cc1)C(=O)N[C@@H](CCCCN)C(=O)N[C@H](C(=O)N[C@@H](CCCCN)C(=O)N[C@H](C(=O)N[C@@H](CCCCN)C(=O)N[C@H](C(=O)N[C@@H](CCCCN)C(=O)N[C@H](C(=O)N[C@@H](CCCCN)C(=O)N[C@H](C(=O)N[C@@H](CCCCN)C(=O)N[C@H](C(=O)N[C@@H](CCCCN)C(=O)N[C@H](C(=O)N[C@@H](CCCCN)C(=O)N[C@H](C(=O)O)[C@@H](C)O)C(C)C)[C@@H](C)O)C(C)C)[C@@H](C)O)C(C)C)[C@@H](C)O)C(C)C", "system": "human ALκ4 amyloid extract", "conditions": "1 h, room temperature", "how to read": "baseline: 1 M NaCl over PBS", "measurement": "binding ratio", "value": 0.017}
{"SMILES": "CC(C)C[C@H]1NC(=O)[C@H](NC(=O)CN)CSSC[C@H]2NC(=O)[C@H]3CSSC[C@H](C(=O)N[C@H](CC(N)=O)C(=O)N[C@H](Cc4ccccc4)C(=O)N[C@H](CO)C(=O)N[C@H](Cc4ccccc4)C(N)=O)NC(=O)[C@@H](CC(C)C)NC(=O)[C@@H](CCCCN)NC(=O)[C@@H](Cc4ccccc4)NC(=O)[C@@H](CC(C)C)NC(=O)[C@@H](CCCCN)NC(=O)[C@@H](CO)NC(=O)[C@@H](CSSC[C@@H](NC(=O)[C@@H](CCCCN)NC(=O)[C@@H](Cc4c[nH]c5ccccc45)NC(=O)[C@@H](Cc4c[nH]c5ccccc45)NC(=O)[C@@H](Cc4ccccc4)NC(=O)[C@@H](CCC(=O)O)NC1=O)C(=O)N[C@H](CC(N)=O)C(=O)N1CCC[C@@H]1C(=O)N[C@H](CC(N)=O)C(=O)N[C@H](CC(=O)O)C(=O)N[C@H](CC(=O)O)C(=O)N[C@H](CCCCN)C(=O)N3)NC(=O)[C@@H](CCCCN)NC(=O)[C@@H](CC(C)C)NC(=O)[C@@H](CCCCN)NC(=O)[C@H]1CCCN1C(=O)[C@@H](CCCNC(=N)N)NC2=O", "assay": "WGA staining histology", "system": "D2.mdx mouse, skeletal muscle", "conditions": "dose not given, six weeks, treatment", "measurement": "fibrosis", "value": "no effect"}
{"SMILES": "CC(C)C[C@H](NC(=O)[C@H](C)NC(=O)CNC(=O)[C@H](CO)NC(=O)CNC(=O)[C@H](CCCNC(=N)N)NC(=O)[C@H](CCCNC(=N)N)NC(=O)[C@H](CCCNC(=N)N)NC(=O)[C@H](CCC(N)=O)NC(=O)[C@H](CCCNC(=N)N)NC(=O)[C@H](CCCNC(=N)N)NC(=O)[C@H](CCCCN)NC(=O)[C@H](CCCCN)NC(=O)[C@H](CCCNC(=N)N)NC(=O)CNC(=O)[C@@H](N)Cc1ccc(O)cc1)C(=O)N[C@@H](CO)C(=O)N[C@H](C(=O)N[C@@H](CCC(=O)O)C(=O)N[C@@H](CCCNC(=N)N)C(=O)O)[C@@H](C)O", "system": "isolated rat heart", "conditions": "concentration not given, ischemia/reperfusion", "measurement": "ALDH2 phosphorylation", "value": "no effect"}
{"SMILES": "CC[C@H](C)[C@H](NC(=O)[C@@H](NC(=O)[C@H](CC(=O)O)NC(C)=O)[C@@H](C)O)C(=O)N[C@@H](CCCNC(=N)N)C(=O)N[C@@H](CC(C)C)C(=O)N[C@@H](CC(C)C)C(=O)N[C@@H](Cc1ccccc1)C(=O)N[C@@H](CCC(N)=O)C(=O)N[C@@H](CC(C)C)C(=O)N[C@@H](CCSC)C(=O)N[C@@H](CCCNC(=N)N)C(=O)N1CCC[C@H]1C(=O)N1CCC[C@H]1C(=O)N[C@@H](CC(N)=O)C(=O)N[C@@H](CCSC)C(=O)N[C@H](C(=O)N1CCC[C@H]1C(=O)N[C@@H](C)C(=O)N[C@H](C(=O)N[C@@H](CC(N)=O)C(=O)N[C@@H](C)C(N)=O)C(C)C)[C@@H](C)O", "assay": "measured: HA-29 tetramer", "system": "antigen-experienced tetramer+ CD4 T cells, healthy adults, HLA-DRB1*0101", "conditions": "dose not given", "measurement": "α4β7− CCR9− cells", "value": "28.6%"}
{"SMILES": "Fc1ccc(N2CCN(Cc3nnc(-c4ccccc4)o3)CC2)cc1", "system": "methanol", "conditions": "25 µM", "measurement": "DPPH radical scavenging", "value": "31.3 ± 2.4%"}
{"SMILES": "CC[C@H](C)[C@H](NC(=O)[C@H](Cc1ccc(O)cc1)NC(=O)[C@@H]1CCCN1C(=O)[C@H](CCCNC(=N)N)NC(=O)[C@H](CCCNC(=N)N)NC(=O)[C@@H](N)CO[C@@H]1O[C@H](CO[C@H]2O[C@H](CO)[C@H](O)[C@H](O)[C@H]2O)[C@@H](O)[C@H](O)[C@H]1O)C(=O)N[C@@H](CC(C)C)C(=O)O", "assay": "6 Hz seizure test", "system": "CF-1 mouse", "conditions": "intracerebroventricular, 30 min, 32 mA corneal stimulation", "measurement": "ED50", "value": "0.0004 nmol"}
{"SMILES": "CCN(CCCCOc1ccc(CCC(=O)N2CCC(Cc3ccccc3)CC2)cc1OC)Cc1ccccc1", "assay": "decrease, ELISA, measured: Aβ1–42", "system": "APP/PS1 transgenic mice, cerebral cortex", "conditions": "dose not given", "measurement": "protein level", "value": "decreased"}
{"SMILES": "C[C@@H](NC(=O)[C@@H](CCC(N)=O)NC(=O)[C@@H](C)NC(=O)[C@@H](CCCCN)NC(=O)[C@@H](CCC(N)=O)NC(=O)[C@@H](C)NC(=O)[C@@H](CCCCN)NC(=O)[C@@H](CCC(N)=O)NC(=O)[C@@H](C)NC(=O)[C@@H](CCC(N)=O)NC(=O)[C@@H](CCCCN)NC(=O)[C@@H](C)NC(=O)[C@@H](CCC(N)=O)NC(=O)[C@@H](CCCCN)NC(=O)[C@@H](C)NC(=O)[C@@H](CCC(N)=O)NC(=O)[C@@H](C)NC(=O)[C@@H](CCCCN)NC(=O)[C@@H](CCC(N)=O)NC(=O)[C@@H](C)NC(=O)[C@@H](CCCCN)NC(=O)[C@@H](CO)NC(=O)[C@@H](Cc1ccc(O)cc1)NC(=O)CNC(=O)CNC(=O)CN)C(=O)N[C@H](CCCCN)C(=O)N[C@H](CCC(N)=O)C(=O)N[C@H](C)C(=O)N[C@H](CCCCN)C(=O)N[C@H](CCC(N)=O)C(=O)O", "assay": "circular dichroism, measured: enoxaparin concentration", "system": "PBS", "conditions": "0.05 mg/mL", "measurement": "transition midpoint", "value": "~100 µM"}
{"SMILES": "COc1ccc([N+](=O)[O-])cc1NC(=O)CCC(=O)[O][Zn][O]C(=O)CCC(=O)Nc1cc([N+](=O)[O-])ccc1OC.c1ccncc1", "assay": "ABTS scavenging", "conditions": "125 µg/mL", "measurement": "inhibition", "value": "68.3%"}
{"SMILES": "CC1=C(C(=O)Nc2ccc(C)cc2)C(c2ccccc2Br)NC(=S)N1 (centres unmarked)", "assay": "contraction, calcium channel antagonist", "system": "isolated rat ileum", "conditions": "added: K+ 80 mM", "measurement": "IC50", "value": "22.4 ± 1.83 µg/mL"}
{"SMILES": "Cc1ccc2c(n1)c(-c1cccc(S(C)(=O)=O)c1)c(C)n2C/C(F)=C/CN", "assay": "measured: hydroxyproline", "system": "male C57BL/6J mice myocardial infarction, heart", "conditions": "oral, 14 mg/kg daily, 28 days", "how to read": "baseline: vehicle", "measurement": "collagen content", "value": "no effect"}
{"SMILES": "CC[C@H](C)[C@H](NC(=O)[C@H](Cc1ccc(O)cc1)NC(=O)[C@H](CCCCN)NC(=O)[C@H](CCCCN)NC(=O)[C@H](CCC(N)=O)NC(=O)[C@H](C)N)C(=O)N[C@@H](CO)C(=O)N[C@@H](Cc1ccc(O)cc1)C(=O)NCC(=O)N[C@@H](C)C(=O)N[C@@H](CCSC)C(=O)N[C@@H](CCCNC(=N)N)C(=O)N[C@@H](CCCNC(=N)N)C(=O)N[C@@H](CC(N)=O)C(=O)N[C@@H](CO)C(=O)N[C@H](C(=O)N1CCC[C@H]1C(=O)N[C@H]1CSSC[C@@H](C(=O)N[C@@H](CCC(N)=O)C(=O)N[C@@H](CCCNC(=N)N)C(=O)NCC(=O)N[C@@H](C)C(=O)N[C@@H](CCC(N)=O)C(=O)N[C@@H](C)C(=O)N[C@@H](CC(N)=O)C(=O)N2CCC[C@H]2C(=O)N[C@@H](Cc2ccc(O)cc2)C(=O)N[C@@H](CO)C(=O)N[C@@H](CCCNC(=N)N)C(=O)NCC(=O)N[C@H]2CSSC[C@@H](C(=O)N[C@@H](CCCNC(=N)N)C(=O)N[C@@H](CCCNC(=N)N)C(=O)O)NC(=O)[C@H](CCCNC(=N)N)NC(=O)[C@H]([C@@H](C)O)NC(=O)[C@H]([C@@H](C)CC)NC(=O)[C@H]([C@@H](C)O)NC(=O)[C@H](CO)NC2=O)NC(=O)[C@H](CC(N)=O)NC(=O)[C@H](Cc2ccc(O)cc2)NC(=O)[C@H](Cc2ccc(O)cc2)NC(=O)[C@H](CO)NC(=O)[C@H](C)NC(=O)CNC(=O)[C@H](CCCNC(=N)N)NC(=O)[C@H](CCCNC(=N)N)NC(=O)[C@H](CO)NC1=O)C(C)C", "assay": "FITC/TRITC dextran ratio", "system": "Arabidopsis thaliana Col-0, root hairs", "conditions": "5 µM", "measurement": "extracellular pH increase", "value": "0.84 pH units"}
{"SMILES": "O=C(O)/C=C/c1ccc(O)cc1", "conditions": "250 µg/mL", "measurement": "DPPH radical scavenging", "value": "67.6 ± 0.5%"}
